Results from different studies.
Numbered parts are unrelated; each lists some results of a single study. Positions count from the first letter of the parent shown.

Sample 1 — technique: RNA Bind-n-Seq; molecule type: RNA; sample: in vitro; concentration: 200 nM; setting: whole 134-nt RNA, ends assumed; added: 150 mM LiCl; relative to: input library; reading: higher = stronger binding; all molecules: 7-deaza-guanosine replaces G
Target: Fragile X messenger ribonucleoprotein 1, C-terminal low-complexity region (Fmr1, Mus musculus, UniProt P35922)
Sequence | log2 enrichment
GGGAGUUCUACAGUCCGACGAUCUAACUUUAGAGGAGGAUCUGAUGGAUAUGGCAGUGGACGUGGAUUUGGGGAUGGCUAUAAUGGGUAUGCAGGAGGACCUGGAGGUGGCAAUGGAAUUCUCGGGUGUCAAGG | 0.704
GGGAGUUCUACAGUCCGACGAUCUGAAGGCGCGGCCCUUCCCCGACGGCCUGGCCGAGGACAUCGAUAAAGGCGAGGUGUCCGCCCGUCAGGAGCUCAAGCAGCGGGCGCGCUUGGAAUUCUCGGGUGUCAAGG | -0.672
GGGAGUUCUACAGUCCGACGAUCCAAGUCCUGUGCUACACAUCGUAUGUACCGAAUCGGGAGGGUUUGGGAAAAAGGGAAAGUAUUAUGUUACGCCGUUCGGAUCUGCACUUCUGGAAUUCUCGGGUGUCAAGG | -0.413
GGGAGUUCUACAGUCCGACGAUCUGGGAGGUGGAUUUUGUUUAUUUUUUUAGCUCAUUUCCAGGGGUAGGAAUUUUUUUUUAAUAUGUGUCAUGAAUAAAGUUGUUUUUGAAAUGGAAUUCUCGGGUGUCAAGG | -0.945
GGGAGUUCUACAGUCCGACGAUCGUCCUGUGCUACACAUCGUAUGUACCGAAUCGGGGAAAAAAAGGGGAGGGGAAAGGGGAAAGUAUUAUGUUACGCCGUUCGGAUCUGCACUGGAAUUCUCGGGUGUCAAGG | 1.08
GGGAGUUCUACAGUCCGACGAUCUCAAGUCCUGUGCUACACAUCGUAUGUACCGAAUCGGGUUUGGGAAAGGGAGGGAAAGUAUUAUGUUACGCCGUUCGGAUCUGCACUUCCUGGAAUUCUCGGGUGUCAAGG | -1.31
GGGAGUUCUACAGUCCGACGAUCAGUCCUGUGCUACACAUCGUAUGUACCGAAUCGGGGUUUUUUUGGGGUGGGGUGGGGAAAGUAUUAUGUUACGCCGUUCGGAUCUGCACUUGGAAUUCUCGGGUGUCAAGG | -0.403
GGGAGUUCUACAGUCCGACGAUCUGGGAGGUGGAUUUUGUUUAUUUUUUUAGCUCAUUUCCAGGGGUGGGAAUUUUUUUUUAAUAUGUGUCAUGAAUAAAGUUGUUUUUGGAAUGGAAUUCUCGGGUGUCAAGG | -0.445
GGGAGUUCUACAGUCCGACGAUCGUCCUGUGCUACACAUCGUAUGUACCGAAUCGGGUUUUUUUGGGUUUUUGGGUUUGGGAAAGUAUUAUGUUACGCCGUUCGGAUCUGCACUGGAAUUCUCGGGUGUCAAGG | -0.514
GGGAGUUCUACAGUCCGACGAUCGCAGGAAGUAAAAACAAAUGGAAAUGCUUCGGAUAGUAAAAGGGGUGGGGGUUGCUAAGGAAAGGGUGGGAUGGGAGUGGGUAAAGAGUUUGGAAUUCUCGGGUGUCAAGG | 1.46
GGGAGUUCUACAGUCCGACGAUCCUCAAGUCCUGUGCUACACAUCGUAUGUACCGAAUCGGCCGGGCCGGCCGGGGAAAGUAUUAUGUUACGCCGUUCGGAUCUGCACUUCCAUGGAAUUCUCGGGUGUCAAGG | 0.304

Sample 2 — technique: RNAcompete; molecule type: RNA; sample: in vitro; concentration: 20 nM; setting: 7-mer, probes averaged, single round; relative to: mean of 7-mers; reading: higher = stronger binding
Target: PABPC1L2, full length, GST fusion (mouse, UniProt A0ABA7IW68)
Residues (chain): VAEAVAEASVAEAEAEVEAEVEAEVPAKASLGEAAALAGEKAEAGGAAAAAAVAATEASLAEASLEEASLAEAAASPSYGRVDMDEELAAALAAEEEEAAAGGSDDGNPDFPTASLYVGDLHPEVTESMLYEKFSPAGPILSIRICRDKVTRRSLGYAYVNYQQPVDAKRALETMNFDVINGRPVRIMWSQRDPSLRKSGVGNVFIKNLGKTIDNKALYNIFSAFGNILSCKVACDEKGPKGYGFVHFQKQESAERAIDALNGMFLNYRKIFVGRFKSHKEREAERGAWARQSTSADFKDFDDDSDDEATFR
Sequence | 7-mer Z-score
UUCGACA | -0.132
GCCACCA | -0.141
AGGCUAA | 0.245
UUUUUUU | -0.44
AUGGCUC | -0.179
GGACCCC | -0.224
GGGAUUC | 0.037
AAUUAUC | 0.075
CUCGACC | -0.251
GUCUGUC | -0.235
UGUAGCC | -0.286
UAACCCU | -0.306
GGUCAGA | 0.233
GCCAGUG | -0.24
ACAGUCG | 0.0623
AUCUCUA | -0.322
GGCAAUC | 0.204
AACAUCC | 0.0261
CGGAUAA | 0.427
UAUCCCC | -0.38
GUCAGUU | -0.313
UAACCAU | -0.18
UAGCGCG | -0.231
UGUCCGC | -0.356
GGACUUC | -0.0409

Sample 3 — technique: universal PBM; molecule type: double-stranded DNA, one strand shown; sample: in vitro; concentration: not given; reading: higher = stronger binding
Target: Sal-like protein 4, full length isoform B (SALL4, Homo sapiens, UniProt Q9UJQ4-2, residues 1-616)
Setting: 8-mer, flanks averaged, mean of replicates
Residues (chain): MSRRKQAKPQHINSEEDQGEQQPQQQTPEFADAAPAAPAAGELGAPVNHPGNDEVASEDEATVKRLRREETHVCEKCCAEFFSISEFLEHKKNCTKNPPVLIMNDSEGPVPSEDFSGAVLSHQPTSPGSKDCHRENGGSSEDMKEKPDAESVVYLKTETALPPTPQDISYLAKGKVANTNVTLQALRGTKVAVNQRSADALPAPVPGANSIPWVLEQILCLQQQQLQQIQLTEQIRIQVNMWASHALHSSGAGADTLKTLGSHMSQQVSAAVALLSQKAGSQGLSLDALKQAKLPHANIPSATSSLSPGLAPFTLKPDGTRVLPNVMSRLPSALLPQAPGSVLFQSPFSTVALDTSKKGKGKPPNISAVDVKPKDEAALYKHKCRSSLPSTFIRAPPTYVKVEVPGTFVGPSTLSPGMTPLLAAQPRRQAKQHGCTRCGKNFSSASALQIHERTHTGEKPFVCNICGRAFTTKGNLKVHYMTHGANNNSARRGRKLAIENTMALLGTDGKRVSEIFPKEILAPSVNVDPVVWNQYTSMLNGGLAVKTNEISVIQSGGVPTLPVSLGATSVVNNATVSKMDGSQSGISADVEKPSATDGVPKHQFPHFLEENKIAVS
Sequence | E-score
CCATTTGC | 0.00214
ACATCGCC | -0.0679
ATAATCAA | 0.337
AGATCAAG | -0.00899
ACATGGCG | -0.071
CCTGGATC | -0.227
ATGTGTCG | 0.0407
GAAGTATA | 0.23
AGTAAACA | 0.166
CCTGTGAA | 0.0189
GCGGCGTA | -0.274
GCACCTCC | -0.341
ATACGGTC | -0.0199
ACATGCTC | 0.0639
ACGAACTC | -0.123
CATAGGGA | 0.0457
TAGACCAA | 0.131
AAGAGGGT | -0.0418
CTGCCCTA | -0.0191
AAGTCTGG | -0.168

Sample 4 — target: CCNE2, cyclin fold, Cln2 fusion (human); technique: yeast growth competition, sequencing; sample: yeast; setting: strong parent motif; relative to: not given; reading: higher = stronger binding
Starting sequence: E2F1 docking peptide (human); PPVKRRLDLETDH
Variant | normalised enrichment score
NPVKRRLDLETDH [P1N] | 1.2
PPVKRRLELETDH [D8E] | 0.627
HPVKRRLDLETDH [P1H] | 1.35
PPVKRRLDLGTDH [E10G] | 1.96
PPEKRRLDLETDH [V3E] | -0.077
PPVKRFLDLETDH [R6F] | 0.034
FPVKRRLDLETDH [P1F] | 2.05
PPVKRRLDLETDD [H13D] | 1.3
PPMKRRLDLETDH [V3M] | 0.26
PPVHRRLDLETDH [K4H] | -0.0584
PGVKRRLDLETDH [P2G] | 1.65
PPVKRRLDLEQDH [T11Q] | 0.887
PLVKRRLDLETDH [P2L] | -0.152
PPFKRRLDLETDH [V3F] | 0.534
PPWKRRLDLETDH [V3W] | 0.684
PPVKRALDLETDH [R6A] | -0.0113
QPVKRRLDLETDH [P1Q] | 0.927
PPVKRRWDLETDH [L7W] | 0.906
PFVKRRLDLETDH [P2F] | 1.59
PPAKRRLDLETDH [V3A] | 2.02
PPVKVRLDLETDH [R5V] | -0.0971
PPVKRRQDLETDH [L7Q] | 0.374
PPVKRRLDLESDH [T11S] | 1.71
PPVKRWLDLETDH [R6W] | 0.191
TPVKRRLDLETDH [P1T] | 1.18

Repeated from above (sample 3):
Sequence | E-score
GCACCTCC | -0.341
ATACGGTC | -0.0199
ACATGCTC | 0.0639
ACGAACTC | -0.123
CATAGGGA | 0.0457
TAGACCAA | 0.131
AAGAGGGT | -0.0418
